Assay results collected from several papers.
Parts stem from different laboratories: compare values within a part only. ± marks the error that the study gave.
Chain of UniProt P10721 (whole entry, looked up): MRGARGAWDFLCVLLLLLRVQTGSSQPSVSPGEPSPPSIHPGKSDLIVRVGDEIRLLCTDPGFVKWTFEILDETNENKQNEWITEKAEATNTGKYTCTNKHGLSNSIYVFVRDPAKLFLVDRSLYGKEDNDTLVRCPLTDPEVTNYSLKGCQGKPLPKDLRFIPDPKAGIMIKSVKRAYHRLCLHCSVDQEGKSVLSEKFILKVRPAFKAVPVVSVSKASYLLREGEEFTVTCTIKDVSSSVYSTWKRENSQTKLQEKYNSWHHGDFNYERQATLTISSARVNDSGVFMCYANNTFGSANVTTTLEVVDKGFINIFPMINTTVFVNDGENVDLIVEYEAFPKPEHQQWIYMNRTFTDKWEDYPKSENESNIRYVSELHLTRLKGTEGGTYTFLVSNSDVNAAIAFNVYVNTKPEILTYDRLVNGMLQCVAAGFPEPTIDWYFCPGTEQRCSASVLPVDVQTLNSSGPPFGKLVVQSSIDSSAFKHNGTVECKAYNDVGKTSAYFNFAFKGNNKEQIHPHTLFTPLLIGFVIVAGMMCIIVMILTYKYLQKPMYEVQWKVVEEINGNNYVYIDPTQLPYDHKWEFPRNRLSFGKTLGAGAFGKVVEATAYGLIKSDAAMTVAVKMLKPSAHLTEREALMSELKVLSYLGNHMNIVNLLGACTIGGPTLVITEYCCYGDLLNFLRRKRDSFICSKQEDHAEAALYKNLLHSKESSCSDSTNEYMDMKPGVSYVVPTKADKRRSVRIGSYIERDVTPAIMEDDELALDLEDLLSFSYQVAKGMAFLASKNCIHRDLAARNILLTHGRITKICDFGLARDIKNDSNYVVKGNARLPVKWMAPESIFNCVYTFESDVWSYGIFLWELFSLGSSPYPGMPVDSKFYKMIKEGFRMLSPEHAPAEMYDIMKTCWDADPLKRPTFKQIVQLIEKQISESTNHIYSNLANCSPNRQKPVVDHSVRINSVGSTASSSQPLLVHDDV
Chain of UniProt Q9UEE5 (whole entry, looked up): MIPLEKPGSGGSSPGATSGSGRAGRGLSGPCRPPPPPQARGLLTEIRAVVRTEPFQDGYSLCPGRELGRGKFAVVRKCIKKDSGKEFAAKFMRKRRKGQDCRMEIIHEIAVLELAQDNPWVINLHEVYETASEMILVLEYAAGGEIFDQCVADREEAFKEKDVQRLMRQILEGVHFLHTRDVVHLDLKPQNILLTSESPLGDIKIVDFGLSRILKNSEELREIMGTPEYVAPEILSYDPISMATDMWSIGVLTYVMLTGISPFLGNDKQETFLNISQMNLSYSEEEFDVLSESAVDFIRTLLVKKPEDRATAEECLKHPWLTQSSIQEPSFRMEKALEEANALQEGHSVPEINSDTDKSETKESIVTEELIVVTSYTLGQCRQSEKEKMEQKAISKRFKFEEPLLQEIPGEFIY
Chain of UniProt Q8IU85 (whole entry, looked up): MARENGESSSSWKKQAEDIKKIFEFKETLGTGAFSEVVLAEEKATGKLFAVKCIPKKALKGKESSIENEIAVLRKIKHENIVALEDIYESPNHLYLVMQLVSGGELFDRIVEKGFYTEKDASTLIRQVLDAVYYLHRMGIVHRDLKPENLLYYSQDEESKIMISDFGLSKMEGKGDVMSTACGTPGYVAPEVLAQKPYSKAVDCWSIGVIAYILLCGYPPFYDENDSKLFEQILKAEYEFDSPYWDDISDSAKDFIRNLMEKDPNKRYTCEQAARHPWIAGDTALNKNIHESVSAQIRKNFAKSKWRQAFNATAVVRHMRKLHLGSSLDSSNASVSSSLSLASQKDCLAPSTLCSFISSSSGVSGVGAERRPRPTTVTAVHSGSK
Chain of UniProt Q07002 (whole entry, looked up): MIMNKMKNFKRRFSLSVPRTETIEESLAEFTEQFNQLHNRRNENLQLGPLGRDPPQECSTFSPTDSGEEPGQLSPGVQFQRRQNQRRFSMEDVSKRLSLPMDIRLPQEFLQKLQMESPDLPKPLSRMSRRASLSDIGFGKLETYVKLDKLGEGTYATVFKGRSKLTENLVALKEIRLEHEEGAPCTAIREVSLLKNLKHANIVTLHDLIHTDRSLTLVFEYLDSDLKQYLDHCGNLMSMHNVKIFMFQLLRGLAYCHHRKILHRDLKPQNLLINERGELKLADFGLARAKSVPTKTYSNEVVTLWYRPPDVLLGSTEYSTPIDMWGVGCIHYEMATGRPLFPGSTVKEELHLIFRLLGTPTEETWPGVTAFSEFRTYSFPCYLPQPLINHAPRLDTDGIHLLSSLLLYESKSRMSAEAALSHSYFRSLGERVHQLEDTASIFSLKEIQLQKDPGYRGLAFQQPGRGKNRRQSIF
Chain of UniProt Q13131 (whole entry, looked up): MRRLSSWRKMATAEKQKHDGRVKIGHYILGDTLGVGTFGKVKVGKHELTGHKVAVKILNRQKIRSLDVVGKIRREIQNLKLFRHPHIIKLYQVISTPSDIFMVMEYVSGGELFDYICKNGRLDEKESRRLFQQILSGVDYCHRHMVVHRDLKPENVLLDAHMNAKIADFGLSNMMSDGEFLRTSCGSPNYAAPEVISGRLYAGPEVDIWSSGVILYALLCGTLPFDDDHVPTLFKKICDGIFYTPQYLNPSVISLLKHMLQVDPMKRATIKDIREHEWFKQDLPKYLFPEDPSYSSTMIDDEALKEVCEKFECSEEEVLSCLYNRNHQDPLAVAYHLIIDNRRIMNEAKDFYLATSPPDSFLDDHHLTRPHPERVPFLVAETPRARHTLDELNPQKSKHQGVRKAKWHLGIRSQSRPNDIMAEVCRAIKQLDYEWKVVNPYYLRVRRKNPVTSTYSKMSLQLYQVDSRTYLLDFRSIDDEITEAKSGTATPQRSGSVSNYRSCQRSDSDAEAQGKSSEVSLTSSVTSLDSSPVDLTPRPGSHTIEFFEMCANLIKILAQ
Chain of UniProt Q9NYL2 (whole entry, looked up): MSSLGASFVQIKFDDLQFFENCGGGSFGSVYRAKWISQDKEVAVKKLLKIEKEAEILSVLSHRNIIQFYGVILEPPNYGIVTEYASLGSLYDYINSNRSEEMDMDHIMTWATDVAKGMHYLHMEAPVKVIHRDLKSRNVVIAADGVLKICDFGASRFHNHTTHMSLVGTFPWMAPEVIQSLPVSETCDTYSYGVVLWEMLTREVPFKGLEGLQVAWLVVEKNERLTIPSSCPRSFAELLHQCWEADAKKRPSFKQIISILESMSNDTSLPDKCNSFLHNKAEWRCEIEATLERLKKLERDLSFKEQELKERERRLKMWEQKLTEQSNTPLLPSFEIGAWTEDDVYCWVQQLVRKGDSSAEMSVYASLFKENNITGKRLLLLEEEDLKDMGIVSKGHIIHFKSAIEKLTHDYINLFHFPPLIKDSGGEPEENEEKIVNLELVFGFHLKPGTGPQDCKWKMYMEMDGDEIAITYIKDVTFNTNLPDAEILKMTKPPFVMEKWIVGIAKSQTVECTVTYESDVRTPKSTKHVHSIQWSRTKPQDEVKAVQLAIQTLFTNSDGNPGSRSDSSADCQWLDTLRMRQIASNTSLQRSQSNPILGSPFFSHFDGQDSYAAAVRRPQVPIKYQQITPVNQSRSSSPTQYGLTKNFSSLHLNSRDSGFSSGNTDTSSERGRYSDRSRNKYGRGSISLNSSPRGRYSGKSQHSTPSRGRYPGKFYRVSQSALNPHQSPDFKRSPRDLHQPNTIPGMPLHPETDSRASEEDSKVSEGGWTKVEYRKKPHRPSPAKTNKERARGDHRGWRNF
Chain of UniProt O60285 (whole entry, looked up): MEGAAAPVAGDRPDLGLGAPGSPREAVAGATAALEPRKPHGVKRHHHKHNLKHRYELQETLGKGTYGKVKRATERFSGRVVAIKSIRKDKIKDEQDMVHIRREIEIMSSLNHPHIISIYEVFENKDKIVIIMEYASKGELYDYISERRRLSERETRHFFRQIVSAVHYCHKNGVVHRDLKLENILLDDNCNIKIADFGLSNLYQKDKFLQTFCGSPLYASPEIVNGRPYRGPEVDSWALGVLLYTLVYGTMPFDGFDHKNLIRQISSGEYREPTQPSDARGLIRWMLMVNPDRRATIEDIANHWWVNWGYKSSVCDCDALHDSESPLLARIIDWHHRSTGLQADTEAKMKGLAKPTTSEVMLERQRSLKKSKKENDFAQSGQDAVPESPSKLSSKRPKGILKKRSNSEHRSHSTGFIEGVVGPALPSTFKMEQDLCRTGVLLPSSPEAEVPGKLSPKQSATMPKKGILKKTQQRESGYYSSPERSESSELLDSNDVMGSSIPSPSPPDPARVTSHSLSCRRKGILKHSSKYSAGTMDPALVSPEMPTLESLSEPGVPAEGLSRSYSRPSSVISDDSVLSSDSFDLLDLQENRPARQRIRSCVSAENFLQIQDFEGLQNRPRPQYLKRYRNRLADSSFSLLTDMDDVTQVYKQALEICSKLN
Chain of UniProt Q96NX5 (whole entry, looked up): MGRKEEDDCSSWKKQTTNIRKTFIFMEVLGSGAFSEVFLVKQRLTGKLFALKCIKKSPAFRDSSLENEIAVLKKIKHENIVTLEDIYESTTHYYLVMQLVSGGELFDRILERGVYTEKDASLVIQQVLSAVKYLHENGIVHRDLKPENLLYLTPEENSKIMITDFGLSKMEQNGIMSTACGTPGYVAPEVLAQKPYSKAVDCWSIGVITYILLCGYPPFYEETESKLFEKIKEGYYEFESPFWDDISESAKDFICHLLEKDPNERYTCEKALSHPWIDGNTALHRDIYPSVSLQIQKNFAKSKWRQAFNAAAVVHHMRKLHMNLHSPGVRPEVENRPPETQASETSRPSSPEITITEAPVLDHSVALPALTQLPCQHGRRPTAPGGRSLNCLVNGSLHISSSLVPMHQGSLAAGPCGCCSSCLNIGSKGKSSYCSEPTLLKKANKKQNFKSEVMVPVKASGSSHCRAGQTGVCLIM

Set 1 — tested at: 1 µM
SMILES: CN(C)CC#Cc1ccc(OCCCc2sc(N3CCc4cccc(C(=O)Nc5nc6ccccc6s5)c4C3)nc2C(=O)O)c(F)c1
It gave 94% for remaining binding (Calcium/calmodulin-dependent protein kinase type 1G (CAMK1G, Homo sapiens, UniProt Q96NX5); cell-free assay, competition with immobilised ligand).
The remaining binding was 85% (Serine/threonine-protein kinase 17A (STK17A, Homo sapiens, UniProt Q9UEE5); cell-free assay, competition with immobilised ligand).
It gave 90% for remaining binding (Serine/threonine-protein kinase MRCK gamma (CDC42BPG, Homo sapiens, UniProt Q6DT37); competition binding).
It gave 100% for remaining binding (Cyclin-dependent kinase 18 (CDK18, Homo sapiens, UniProt Q07002); cell-free assay, competition with immobilised ligand).
It gave 83% for remaining binding (eIF-2-alpha kinase GCN2, C-terminal kinase domain (EIF2AK4, Homo sapiens, UniProt Q9P2K8, S808G); cell-free assay, competition with immobilised ligand).
5'-AMP-activated protein kinase catalytic subunit alpha-1 (PRKAA1, Homo sapiens, UniProt Q13131); cell-free assay, competition with immobilised ligand — remaining binding: 100%.
It gave 100% for remaining binding (NT-3 growth factor receptor (NTRK3, Homo sapiens, UniProt Q16288); cell-free assay, competition with immobilised ligand).
Platelet-derived growth factor receptor alpha (PDGFRA, Homo sapiens, UniProt P16234); cell-free assay, competition with immobilised ligand — remaining binding: 100%.
It gave 100% for remaining binding (TGF-beta receptor type-1 (TGFBR1, Homo sapiens, UniProt P36897); cell-free assay, competition with immobilised ligand).
The remaining binding was 90% (Calcium/calmodulin-dependent protein kinase type 1D (CAMK1D, Homo sapiens, UniProt Q8IU85); cell-free assay, competition with immobilised ligand).
It gave 100% for remaining binding (Mitogen-activated protein kinase kinase kinase 20 (MAP3K20, Homo sapiens, UniProt Q9NYL2); cell-free assay, competition with immobilised ligand).
For Mast/stem cell growth factor receptor Kit, autoinhibited (KIT, Homo sapiens, UniProt P10721); cell-free assay, competition with immobilised ligand: remaining binding read 85%.
Serine/threonine-protein kinase DCLK1 (DCLK1, Homo sapiens, UniProt O15075); cell-free assay, competition with immobilised ligand — remaining binding: 72%.
The remaining binding was 80% (NUAK family SNF1-like kinase 1 (NUAK1, Homo sapiens, UniProt O60285); cell-free assay, competition with immobilised ligand).

Set 2 — read-out: kinase activity
SMILES: COc1cc(C(=O)N2CCC(N3CCN(C)CC3)CC2)ccc1Nc1ncc2c(n1)N(C)c1ccccc1C(=O)N2C
The remaining activity was 63% (SYK; 10 µM).
For MLK1; 1 µM: remaining activity read 87 ± 5%.
It gave 75 ± 3% for remaining activity (CAMK1; 1 µM).
The remaining activity was 104 ± 13% (HIPK1; 10 µM).
For p38g MAPK; 1 µM: remaining activity read 90 ± 3%.
It gave 90 ± 3% for remaining activity (HIPK3; 1 µM).

Set 3 — cell line: HaCaT; tested at: 100 µM; time: 18 h
`COc1cccc2c1C(=O)c1c(O)c3c(c(O)c1C2=O)C[C@@](O)(C(C)=O)C[C@@H]3O[C@H]1C[C@H](N)[C@H](O)[C@H](C)O1` gave a viability of 31%.
`COc1cc(C)c(/C=C/C(C)=C/C=C/C(C)=C/C(=O)O)c(C)c1C` has a viability of 92.5%.
The viability of `CC(C)(S)C(N)C(=O)O` (racemic) is reported as 96.9%.
`Clc1ccc(CCC(Cn2ccnc2)Sc2c(Cl)cccc2Cl)cc1` (centres unmarked) has a viability of 16.4%.

Set 4 — organism: Sarcocystis neurona; read-out: parasite growth; tested at: 10 µM; setting: first screen; baseline: untreated
`Cl.NC1CCN(c2cccc(Cl)n2)CC1` — result for “log2 fold change”: 0.21.
`CC1=C(C/C=C(\C)CCC[C@H](C)CCC[C@H](C)CCCC(C)C)C(=O)c2ccccc2C1=O`: “log2 fold change” 0.2.
`CC(C)[N+]1(C)[C@@H]2CC[C@H]1CC(OC(=O)C(CO)c1ccccc1)C2.[Br-]` (some centres unmarked) — result for “log2 fold change”: 0.3.
`Cc1cccc(CN2CCN(C(c3ccccc3)c3ccc(Cl)cc3)CC2)c1.Cl.Cl` (centres unmarked): “log2 fold change” -0.19.
For `COc1ccc(CN2CCN(C(c3ccc(F)cc3)c3ccc(F)cc3)CC2)c(OC)c1OC.Cl.Cl`, “log2 fold change” read -0.25.

For quick reference, copied from above (set 2):
For MLK1; 1 µM: remaining activity read 87 ± 5%.
It gave 75 ± 3% for remaining activity (CAMK1; 1 µM).
The remaining activity was 104 ± 13% (HIPK1; 10 µM).
